Assay results of several laboratories.
A part holds a random share of what one study measured.
Sequence of UniProt Q969T4 (whole entry, looked up): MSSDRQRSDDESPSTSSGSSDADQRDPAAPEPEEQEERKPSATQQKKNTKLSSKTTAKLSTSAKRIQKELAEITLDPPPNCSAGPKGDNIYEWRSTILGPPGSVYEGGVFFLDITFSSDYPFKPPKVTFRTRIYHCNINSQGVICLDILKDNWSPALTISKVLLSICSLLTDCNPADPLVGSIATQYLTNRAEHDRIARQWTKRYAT
Sequence of UniProt Q9Y2X8 (whole entry, looked up): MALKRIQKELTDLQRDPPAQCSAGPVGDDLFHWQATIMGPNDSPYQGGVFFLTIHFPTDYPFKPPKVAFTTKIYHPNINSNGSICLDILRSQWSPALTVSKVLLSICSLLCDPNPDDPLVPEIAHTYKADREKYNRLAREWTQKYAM
Sequence of UniProt P51668 (whole entry, looked up): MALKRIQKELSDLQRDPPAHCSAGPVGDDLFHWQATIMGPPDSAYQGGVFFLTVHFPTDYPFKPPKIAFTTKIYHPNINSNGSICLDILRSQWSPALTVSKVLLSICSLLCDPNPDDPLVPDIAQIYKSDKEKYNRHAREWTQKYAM
Sequence of UniProt P62837 (whole entry, looked up): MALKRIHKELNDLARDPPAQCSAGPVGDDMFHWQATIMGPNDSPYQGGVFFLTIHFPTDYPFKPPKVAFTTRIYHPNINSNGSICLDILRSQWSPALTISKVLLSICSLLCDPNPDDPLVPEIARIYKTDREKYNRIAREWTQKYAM

Block 1 — technique: yeast two-hybrid; sample: yeast; setting: mostly zero background; relative to: not given; reading: higher = stronger interaction; measurement: lacZ reporter activity
Molecule: FDPPLESKYECPICLMALREAVQTPCGHRFCKACIIKSIRDAGHKCPVDNEILLENQLFP (TRAF6 RING domain (UniProt Q9Y4K3))
UBE2D4 UBC core domain (UniProt Q9Y2X8): 0
UBE2D1 UBC core domain (UniProt P51668): 0
UBE2D2 UBC core domain (UniProt P62837): 0
UBE2E3 UBC core domain (UniProt Q969T4): 0

Block 2 — technique: protein-binding microarray; form: double-stranded DNA, one strand shown; sample: in vitro; tested at: 940 nM top; setting: 60-bp whole probe; added: salmon DNA 0.4 mg/ml; relative to: random background probes; reading: higher = stronger binding; measurement: fitted relative affinity; constant ends, left off below: GCCTAGCAC … GTCTTGATTCGCTTGACGCTGCTG
Target: Interferon regulatory factor 5, full length, phosphomimetic (IRF5, Homo sapiens, UniProt Q13568-2, residues 1-514, S451D/S453D/S456D/S462D)
TTAGATTTCAGTCTCGAATAGTGCTAG: 1.76 z-score
GTTATCCTATATCTGAACCGGTGCTAG: 0.115 z-score
TTAGATTTCAGACTGGATAAGTGCTAG: 0.0841 z-score
GACGAACTGGGGTATGGAGACGTGCTA: 0.506 z-score
CAGAATTTACTTTCTACGTCGTGCTAG: 0.74 z-score
TTAGAACTGATACTGGATTAGTGCTAG: 0.115 z-score
TCATCCTCCTCTCTCTTACTGTGCTAG: 1.13 z-score
TTAGGTTTCCTTATCGTTTAGTGCTAG: 1.88 z-score
TTAGGTTTCCCTATCCTTTAGTGCTAG: 2.62 z-score
TTAGATTCCAGTTTCAATTAGTGCTAG: 3.13 z-score
TTAGAACCGAGTATCGATTAGTGCTAG: 4.06 z-score

Block 3 — technique: universal PBM; form: double-stranded DNA, one strand shown; sample: in vitro; tested at: 600 nM; reading: higher = stronger binding; measurement: E-score
Target: Sal-like protein 4, full length isoform A (SALL4, Homo sapiens, UniProt Q9UJQ4, residues 1-1053)
Sequence of UniProt Q9UJQ4 (whole entry, looked up): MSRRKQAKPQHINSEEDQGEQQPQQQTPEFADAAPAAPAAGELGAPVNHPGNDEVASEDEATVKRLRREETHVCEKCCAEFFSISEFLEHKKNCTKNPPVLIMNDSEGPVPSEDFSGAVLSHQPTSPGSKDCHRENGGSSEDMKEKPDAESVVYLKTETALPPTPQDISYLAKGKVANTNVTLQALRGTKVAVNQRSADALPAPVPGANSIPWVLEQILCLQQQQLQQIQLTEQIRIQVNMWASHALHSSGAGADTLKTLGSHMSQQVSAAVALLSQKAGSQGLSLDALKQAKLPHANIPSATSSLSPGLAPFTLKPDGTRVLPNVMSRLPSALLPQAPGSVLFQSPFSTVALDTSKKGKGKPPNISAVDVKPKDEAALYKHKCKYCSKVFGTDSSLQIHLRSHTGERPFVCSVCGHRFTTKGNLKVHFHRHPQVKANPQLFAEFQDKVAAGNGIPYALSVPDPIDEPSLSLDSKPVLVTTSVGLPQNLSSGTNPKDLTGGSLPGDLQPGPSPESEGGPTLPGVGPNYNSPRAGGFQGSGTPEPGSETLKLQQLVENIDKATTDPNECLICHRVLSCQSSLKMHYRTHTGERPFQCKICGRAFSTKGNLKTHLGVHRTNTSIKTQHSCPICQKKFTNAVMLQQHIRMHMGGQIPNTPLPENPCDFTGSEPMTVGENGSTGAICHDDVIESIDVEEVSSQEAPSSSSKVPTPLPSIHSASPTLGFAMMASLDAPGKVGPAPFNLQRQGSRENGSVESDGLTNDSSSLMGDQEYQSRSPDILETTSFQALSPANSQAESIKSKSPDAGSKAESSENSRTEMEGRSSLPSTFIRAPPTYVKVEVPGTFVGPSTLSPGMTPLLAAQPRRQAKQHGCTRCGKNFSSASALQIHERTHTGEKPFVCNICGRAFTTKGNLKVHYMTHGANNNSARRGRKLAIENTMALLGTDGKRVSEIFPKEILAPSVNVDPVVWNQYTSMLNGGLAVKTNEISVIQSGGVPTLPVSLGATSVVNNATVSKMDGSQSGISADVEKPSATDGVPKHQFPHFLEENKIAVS
Setting: 8-mer, flanks averaged, mean of replicates
AGCGTTAG: -0.0722
CATAACCA: 0.25
AACACAGA: 0.0413
ACTGTGGC: -0.289
CAAATAGC: 0.216
ACATGCAA: 0.11
AGATTAAC: 0.146
AATCAACC: -0.0347
ACCTAATA: 0.286
AGGACACA: 0.132
AGGCGCGG: -0.445
AATTTGCA: 0.203
AGGGTCGA: -0.129
GTCAGCCA: -0.163
CACGTCGG: -0.301
GACCGGTC: -0.256
ACAACTCG: 0.0356
ACCAGAGT: -0.0829
AAGAACAC: -0.00407
CACATGTG: -0.0763
TAATGCGA: 0.235
AAGAACCG: -0.0568

Block 4 — technique: RNA Bind-n-Seq; form: RNA; sample: in vitro; tested at: 200 nM; setting: whole 134-nt RNA, ends assumed; added: 150 mM LiCl; relative to: input library; reading: higher = stronger binding; measurement: log2 enrichment; each molecule: 7-deaza-guanosine replaces G
Target: Fragile X messenger ribonucleoprotein 1, C-terminal low-complexity region (Fmr1, Mus musculus, UniProt P35922)
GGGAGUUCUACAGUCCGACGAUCUCAAGUCCUGUGCUACACAUCGUAUGUACCGAAUCGGGUUUGGGAGGGUUUGGGAAAGUAUUAUGUUACGCCGUUCGGAUCUGCACUUCCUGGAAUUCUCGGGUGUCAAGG: -0.624
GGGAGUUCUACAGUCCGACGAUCUCAAGUCCUGUGCUACACAUCGUAUGUACCGAAUCGGAAAAAGGAGGAAAAAGGAAAGUAUUAUGUUACGCCGUUCGGAUCUGCACUUCCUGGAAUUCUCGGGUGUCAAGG: -0.314
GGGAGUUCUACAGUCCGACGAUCUGGGAGGCGGAUUUUGUUUAUUUUUUUAGCUCAUUUCCAGGGGUGGGAAUUUUUUUUUAAUAUGUGUCAUGAAUAAAGUUGUUUUUGAAAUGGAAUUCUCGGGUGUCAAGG: 1.03
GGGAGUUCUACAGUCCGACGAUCAGUCCUGUGCUACACAUCGUAUGUACCGAAUCGGGAAAAGGGGAAAAGGAAAAGGGGAAAGUAUUAUGUUACGCCGUUCGGAUCUGCACUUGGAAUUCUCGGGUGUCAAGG: -0.534
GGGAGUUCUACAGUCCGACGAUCGCAGGAAGUAAAAACAAAUGGAAAUGCUUCGGAAAGUGGCAGGGGUGGGGGUUGCUAAGGAAAGGGUGGGAUGGGAGUGGGUAAAGAGUUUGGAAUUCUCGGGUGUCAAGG: 2.03
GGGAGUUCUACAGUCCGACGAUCAGUGACCAUUUUAGUUAAAUUUUGUUCCUCUUCCCCCUUUUCACUUUCCUGGAAGAUCGAUGUCCCGAUCAGGAAGGUAGAGAGUUUUCCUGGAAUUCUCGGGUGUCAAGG: 0.727
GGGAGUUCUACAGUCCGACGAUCUUCCUCAAGUCCUGUGCUACACAUCGUAUGUACCGAAUCGGGUGGUGGUGGAAAGUAUUAUGUUACGCCGUUCGGAUCUGCACUUCCAGCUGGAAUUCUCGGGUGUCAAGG: -0.0361
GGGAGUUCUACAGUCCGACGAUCUCAAGUCCUGUGCUACACAUCGUAUGUACCGAAUCGGGGUGGGGAGGGGAGGGGAAAGUAUUAUGUUACGCCGUUCGGAUCUGCACUUCCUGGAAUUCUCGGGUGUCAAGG: -0.227
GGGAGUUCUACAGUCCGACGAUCCUCAAGUCCUGUGCUACACAUCGUAUGUACCGAAUCGGGGAGGGAGGGGAGGGGAAAGUAUUAUGUUACGCCGUUCGGAUCUGCACUUCCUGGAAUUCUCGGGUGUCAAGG: -0.401
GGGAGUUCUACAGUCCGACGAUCUCCUCAAGUCCUGUGCUACACAUCGUAUGUACCGAAUCGGAGGAGGAAAGGAAAGUAUUAUGUUACGCCGUUCGGAUCUGCACUUCCAGCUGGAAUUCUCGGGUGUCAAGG: -2.17
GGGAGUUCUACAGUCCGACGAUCAAGUCCUGUGCUACACAUCGUAUGUACCGAAUCGGGCCCCGGGCCCCGGGGCCCCGGAAAGUAUUAUGUUACGCCGUUCGGAUCUGCACUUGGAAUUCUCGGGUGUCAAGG: 0.455

Excerpt of the above (block 1):
UBE2D4 UBC core domain (UniProt Q9Y2X8): 0
UBE2D1 UBC core domain (UniProt P51668): 0
UBE2D2 UBC core domain (UniProt P62837): 0
UBE2E3 UBC core domain (UniProt Q969T4): 0
